Experimental data collected from several papers.
Lines come from different studies, so protocols differ. Values joined by “and” are separate records of one study, mostly repeats; a detail may differ. Numbers after ± are the reported error.
Methyl-accepting chemotaxis protein McpA ligand-binding domain: Methyl-accepting chemotaxis protein McpA, ligand-binding domain (Bacillus velezensis, UniProt A7Z835)
uncharacterized protein: uncharacterized protein (Corynebacterium lipophiloflavum, UniProt C0XPZ5)
USP13 ZnF-UBD domain: Ubiquitin carboxyl-terminal hydrolase 13, ZnF-UBD domain (USP13, Homo sapiens, UniProt Q92995)
UniProt Q92995, sequence (whole entry, looked up): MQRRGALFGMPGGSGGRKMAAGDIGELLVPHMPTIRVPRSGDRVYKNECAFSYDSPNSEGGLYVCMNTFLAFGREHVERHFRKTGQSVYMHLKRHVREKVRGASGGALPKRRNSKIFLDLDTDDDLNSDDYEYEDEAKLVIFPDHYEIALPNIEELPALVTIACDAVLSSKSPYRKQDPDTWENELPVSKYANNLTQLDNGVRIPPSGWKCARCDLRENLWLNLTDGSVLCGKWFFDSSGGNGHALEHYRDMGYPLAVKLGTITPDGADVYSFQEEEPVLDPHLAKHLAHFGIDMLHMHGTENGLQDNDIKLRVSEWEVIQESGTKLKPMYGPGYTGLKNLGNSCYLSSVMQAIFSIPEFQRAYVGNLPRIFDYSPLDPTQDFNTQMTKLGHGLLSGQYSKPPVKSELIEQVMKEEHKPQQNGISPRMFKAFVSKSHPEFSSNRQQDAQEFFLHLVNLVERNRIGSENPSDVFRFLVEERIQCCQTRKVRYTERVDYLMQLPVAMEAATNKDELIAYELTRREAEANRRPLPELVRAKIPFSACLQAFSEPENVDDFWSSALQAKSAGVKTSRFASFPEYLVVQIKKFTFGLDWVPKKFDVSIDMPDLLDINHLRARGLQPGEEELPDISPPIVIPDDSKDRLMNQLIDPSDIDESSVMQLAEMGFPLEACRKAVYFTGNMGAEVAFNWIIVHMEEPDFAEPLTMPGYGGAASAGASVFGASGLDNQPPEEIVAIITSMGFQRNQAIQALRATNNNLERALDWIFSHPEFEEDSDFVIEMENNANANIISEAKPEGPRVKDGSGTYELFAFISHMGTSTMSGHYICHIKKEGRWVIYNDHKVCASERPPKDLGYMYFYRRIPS
NSD2 PWWP1 domain: Histone-lysine N-methyltransferase NSD2, PWWP1 domain (NSD2, Homo sapiens, UniProt O96028)
SCRIB PDZ3 domain: Protein scribble homolog, PDZ3 domain (SCRIB, Homo sapiens, UniProt Q14160)
UniProt Q14160, sequence (whole entry, looked up): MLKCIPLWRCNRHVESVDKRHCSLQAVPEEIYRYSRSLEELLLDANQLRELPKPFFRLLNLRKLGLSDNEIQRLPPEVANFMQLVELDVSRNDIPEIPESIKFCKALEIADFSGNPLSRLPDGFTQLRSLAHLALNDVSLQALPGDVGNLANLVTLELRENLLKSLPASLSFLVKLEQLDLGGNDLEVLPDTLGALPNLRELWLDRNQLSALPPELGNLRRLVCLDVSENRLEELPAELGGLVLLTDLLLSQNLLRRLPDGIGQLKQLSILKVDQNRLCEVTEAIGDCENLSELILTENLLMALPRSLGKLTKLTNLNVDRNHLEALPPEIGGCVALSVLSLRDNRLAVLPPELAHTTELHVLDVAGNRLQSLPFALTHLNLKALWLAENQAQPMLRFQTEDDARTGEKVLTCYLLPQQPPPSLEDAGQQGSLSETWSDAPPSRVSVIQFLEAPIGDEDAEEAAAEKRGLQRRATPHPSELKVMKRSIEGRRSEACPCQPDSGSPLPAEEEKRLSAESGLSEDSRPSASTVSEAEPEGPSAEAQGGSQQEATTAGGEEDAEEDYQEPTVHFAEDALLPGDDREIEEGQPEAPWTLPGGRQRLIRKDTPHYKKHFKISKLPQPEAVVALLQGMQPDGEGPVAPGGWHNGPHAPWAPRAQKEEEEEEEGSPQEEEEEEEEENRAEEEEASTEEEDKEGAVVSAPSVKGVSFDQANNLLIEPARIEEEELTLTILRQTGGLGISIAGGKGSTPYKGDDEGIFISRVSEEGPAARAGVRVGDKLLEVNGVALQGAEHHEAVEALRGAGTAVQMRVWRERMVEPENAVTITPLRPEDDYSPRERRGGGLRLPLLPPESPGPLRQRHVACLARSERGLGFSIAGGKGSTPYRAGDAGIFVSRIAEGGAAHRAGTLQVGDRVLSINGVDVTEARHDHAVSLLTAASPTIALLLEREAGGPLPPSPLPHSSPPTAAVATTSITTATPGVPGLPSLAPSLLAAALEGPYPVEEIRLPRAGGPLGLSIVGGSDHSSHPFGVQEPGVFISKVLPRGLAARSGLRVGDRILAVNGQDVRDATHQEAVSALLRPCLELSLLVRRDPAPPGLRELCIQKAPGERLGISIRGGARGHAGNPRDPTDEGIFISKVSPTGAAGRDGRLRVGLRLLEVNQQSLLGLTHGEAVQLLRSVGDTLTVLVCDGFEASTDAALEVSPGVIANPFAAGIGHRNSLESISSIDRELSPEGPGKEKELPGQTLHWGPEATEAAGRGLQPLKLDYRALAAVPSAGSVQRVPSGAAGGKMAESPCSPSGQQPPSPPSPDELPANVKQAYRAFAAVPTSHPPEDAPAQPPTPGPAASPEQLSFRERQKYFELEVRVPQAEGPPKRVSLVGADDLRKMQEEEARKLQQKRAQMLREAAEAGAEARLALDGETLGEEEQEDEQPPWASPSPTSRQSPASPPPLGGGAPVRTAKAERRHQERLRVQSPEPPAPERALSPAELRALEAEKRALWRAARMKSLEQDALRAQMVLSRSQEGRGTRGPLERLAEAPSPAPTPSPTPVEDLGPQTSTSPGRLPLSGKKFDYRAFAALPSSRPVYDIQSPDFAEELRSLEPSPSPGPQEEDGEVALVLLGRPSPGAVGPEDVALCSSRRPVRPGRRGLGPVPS
HDAC6 ZnF-UBD domain: Protein deacetylase HDAC6, ZnF-UBD domain (HDAC6, Homo sapiens, UniProt Q9UBN7)
UniProt Q9UBN7, sequence (whole entry, looked up): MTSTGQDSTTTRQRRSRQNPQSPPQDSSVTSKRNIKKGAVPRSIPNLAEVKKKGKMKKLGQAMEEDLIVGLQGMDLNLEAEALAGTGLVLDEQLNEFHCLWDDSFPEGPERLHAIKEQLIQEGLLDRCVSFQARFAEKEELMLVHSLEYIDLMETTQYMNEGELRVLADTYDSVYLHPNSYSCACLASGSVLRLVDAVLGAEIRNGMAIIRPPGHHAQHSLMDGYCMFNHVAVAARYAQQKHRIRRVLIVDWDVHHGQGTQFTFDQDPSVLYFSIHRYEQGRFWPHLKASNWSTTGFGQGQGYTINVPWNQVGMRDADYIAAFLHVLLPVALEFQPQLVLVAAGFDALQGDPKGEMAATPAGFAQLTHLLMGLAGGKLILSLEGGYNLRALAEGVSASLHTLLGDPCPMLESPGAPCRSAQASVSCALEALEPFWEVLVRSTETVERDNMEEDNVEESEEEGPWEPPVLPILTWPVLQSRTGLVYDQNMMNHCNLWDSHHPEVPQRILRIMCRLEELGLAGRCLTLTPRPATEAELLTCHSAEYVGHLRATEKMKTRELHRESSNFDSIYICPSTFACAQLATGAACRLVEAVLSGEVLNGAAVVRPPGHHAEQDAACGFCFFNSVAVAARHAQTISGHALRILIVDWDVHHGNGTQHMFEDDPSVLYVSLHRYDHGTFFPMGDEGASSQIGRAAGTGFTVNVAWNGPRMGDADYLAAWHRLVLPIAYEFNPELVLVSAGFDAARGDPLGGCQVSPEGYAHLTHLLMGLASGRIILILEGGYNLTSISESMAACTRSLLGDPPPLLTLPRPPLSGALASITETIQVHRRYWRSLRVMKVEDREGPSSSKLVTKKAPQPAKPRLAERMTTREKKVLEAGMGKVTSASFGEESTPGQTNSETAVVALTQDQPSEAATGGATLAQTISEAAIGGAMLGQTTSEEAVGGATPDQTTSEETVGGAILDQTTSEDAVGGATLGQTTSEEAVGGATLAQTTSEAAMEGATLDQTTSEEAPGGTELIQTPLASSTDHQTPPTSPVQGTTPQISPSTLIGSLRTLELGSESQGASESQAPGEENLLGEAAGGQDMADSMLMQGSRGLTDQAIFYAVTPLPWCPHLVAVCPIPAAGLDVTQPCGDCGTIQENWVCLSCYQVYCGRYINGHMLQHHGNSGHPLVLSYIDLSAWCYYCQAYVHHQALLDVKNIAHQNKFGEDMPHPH
LYZ: Lysozyme C (LYZ, Gallus gallus, UniProt P00698)
UniProt P00698, sequence (whole entry, looked up): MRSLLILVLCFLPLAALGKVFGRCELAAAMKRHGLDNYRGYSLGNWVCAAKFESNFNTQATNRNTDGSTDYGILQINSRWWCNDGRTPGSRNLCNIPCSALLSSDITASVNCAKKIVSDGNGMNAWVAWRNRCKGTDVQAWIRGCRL
SMARCA2: SWI/SNF-related matrix-associated actin-dependent regulator of chromatin subfamily A member 2 (SMARCA2, Homo sapiens, UniProt P51531)
gsk: Guanosine-inosine kinase (gsk, Escherichia coli, UniProt P0AEW6)
UniProt Q16774, sequence (whole entry, unmodified, looked up): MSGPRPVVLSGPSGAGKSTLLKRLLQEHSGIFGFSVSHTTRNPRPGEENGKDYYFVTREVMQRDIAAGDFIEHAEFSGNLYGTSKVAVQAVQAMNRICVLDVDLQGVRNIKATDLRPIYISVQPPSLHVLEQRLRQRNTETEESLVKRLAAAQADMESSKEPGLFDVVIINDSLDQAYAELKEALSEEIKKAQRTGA
UniProt P0AEW6, sequence (whole entry, looked up): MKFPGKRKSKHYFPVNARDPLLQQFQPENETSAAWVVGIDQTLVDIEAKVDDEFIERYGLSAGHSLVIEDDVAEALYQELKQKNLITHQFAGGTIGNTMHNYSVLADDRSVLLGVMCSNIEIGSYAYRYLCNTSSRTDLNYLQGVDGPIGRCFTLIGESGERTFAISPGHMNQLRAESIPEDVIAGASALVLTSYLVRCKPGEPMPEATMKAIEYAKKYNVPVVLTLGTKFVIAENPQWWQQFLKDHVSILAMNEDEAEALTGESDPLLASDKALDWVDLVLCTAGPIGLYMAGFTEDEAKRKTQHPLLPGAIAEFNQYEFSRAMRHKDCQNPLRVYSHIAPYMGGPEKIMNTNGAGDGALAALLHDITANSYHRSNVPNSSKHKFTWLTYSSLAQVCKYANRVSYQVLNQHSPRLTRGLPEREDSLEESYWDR
UniProt P02754, sequence (whole entry, looked up): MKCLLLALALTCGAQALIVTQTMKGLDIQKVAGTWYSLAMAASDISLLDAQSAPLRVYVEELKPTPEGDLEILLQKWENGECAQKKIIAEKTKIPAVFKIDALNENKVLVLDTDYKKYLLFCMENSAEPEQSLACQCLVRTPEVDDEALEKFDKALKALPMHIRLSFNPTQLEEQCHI
UniProt P33487, sequence (whole entry, looked up): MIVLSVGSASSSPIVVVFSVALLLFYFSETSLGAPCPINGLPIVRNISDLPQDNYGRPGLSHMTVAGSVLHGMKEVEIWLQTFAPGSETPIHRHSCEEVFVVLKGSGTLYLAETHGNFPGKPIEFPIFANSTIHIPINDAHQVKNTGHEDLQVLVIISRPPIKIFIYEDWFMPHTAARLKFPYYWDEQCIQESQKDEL

| Structure (SMILES) | target | test | system | setting | Kd |
| --- | --- | --- | --- | --- | --- |
| N[C@@H](CCC(=O)O)C(=O)O | Methyl-accepting chemotaxis protein McpA ligand-binding domain | binding, biolayer interferometry | – | 25 °C, 1:1 binding model | 24.9 ± 2.14 µM |
| Nc1nc2c(ncn2[C@@H]2O[C@H](COP(=O)(O)O)[C@@H](O)[C@H]2O)c(=O)[nH]1 | GUK1 (Homo sapiens, UniProt Q16774) | ITC | – | pH 7.5, 20 mM HEPES, with: 150 mM NaCl | 35 µM and 28 µM |
| CCCCCCCC/C=C\CCCCCCCC(=O)O | uncharacterized protein | heme spectral shift, substrate, UV-visible spectral titration | – | – | 1.64 µM |
| Nc1ncnc2c1ncn2[C@@H]1O[C@H](COP(=O)(O)OP(=O)(O)OP(=O)(O)O)[C@@H](O)[C@H]1O | CKMT1A (Homo sapiens, UniProt P12532) | microscale thermophoresis | – | pH 7.0, wild type, no substrate | 32 ± 19 µM |
| O=C1OC(C(O)CO)C(=O)C1=O (stereo not drawn) | Methyl-accepting chemotaxis protein McpA ligand-binding domain | binding, biolayer interferometry | – | 25 °C, 1:1 binding model | 32.9 ± 3.16 µM |
| O=C(O)CCc1cnccn1 | USP13 ZnF-UBD domain | – | – | – | > 1000 µM |
| NCCCCCNC(=O)c1ccc(NC(=O)c2ccc(CN(C(=O)c3ccc4c(c3)OCC(=O)N4)C3CC3)cc2)cc1 | NSD2 PWWP1 domain | SPR single-cycle kinetics | – | pH 7.4, 20 °C, 0.5% DMSO | 0.036 ± 0.021 µM |
| N[C@@H](Cc1c[nH]c2ccccc12)C(=O)O | NRPS (Phaeodactylum tricornutum, UniProt B7G2G4) | microscale thermophoresis | – | 24.1 °C | 0.35 ± 0.31 µM |
| CCN(CC)Cc1ccc2cc(COC(=O)Nc3ccc(C(=O)NO)cc3)ccc2c1 | Alpha-synuclein, pre-formed fibrils (SNCA, Homo sapiens, UniProt P37840) | binding, ITC | PBS | 25 °C | 11.6 µM |
| O=C(O)Cc1c[nH]c2ccccc12 | Auxin-binding protein 1 (ERABP1, Arabidopsis thaliana, UniProt P33487) | binding, microscale thermophoresis | – | Flag-tagged protein from protoplasts | 4.71 µM |
| C[C@H](O)C(=O)O | L166H-Q481H zinc sensor protein | binding, fluorescence lifetime | – | with: 100 µM Zn2+ | 95 ± 5 µM |
| CC(C)C[C@H](NC(=O)[C@H](CCC(=O)O)NC(=O)[C@@H](NC(=O)[C@H](CC(=O)O)NC(=O)[C@H](CCCNC(=N)N)NC(=O)[C@H](Cc1ccc(O)cc1)NC(=O)[C@H](CCCNC(=N)N)NC(=O)[C@H](C)NC(=O)[C@H](CO)NC(=O)[C@@H](N)CCC(N)=O)[C@@H](C)O)C(=O)O | SCRIB PDZ3 domain | binding, fluorescence polarization | solution | Scribble PDZ3 domain | 13.7 µM |
| NC(=O)[C@H]1CCCN1C(=O)CCC(=O)O | HDAC6 ZnF-UBD domain | – | – | – | 565 µM |
| CC(=O)N[C@H]1[C@H](O[C@H]2[C@H](O)[C@@H](NC(C)=O)C(O)O[C@@H]2CO)O[C@H](CO)[C@@H](O[C@@H]2O[C@H](CO)[C@@H](O)[C@H](O)[C@H]2NC(C)=O)[C@@H]1O (stereo partly drawn) | LYZ | binding, native nano-ESI MS | – | pH 7.4, emitter tip 850 nm | 7.8 ± 0.2 µM |
| C=CC(=O)N1CCN(c2nc(OC[C@@H]3CCCN3C)nc3c(F)c(-c4nc(N)cc(C)c4C(F)(F)F)c(Cl)cc23)[C@@H](C)C1 | GTPase KRas, GDP-bound (KRAS, Homo sapiens, UniProt P01116) | microscale thermophoresis | – | – | 0.197 ± 0.13 µM |
| O=C(O)CCn1c(=O)oc2ccccc21 | USP13 ZnF-UBD domain | – | – | – | > 1000 µM |
| CCCCOc1ccc(CC(=O)NO)cc1 | HDAC6 (Homo sapiens, UniProt Q9UBN7) | inhibitor, competition pulldown | SW620 and MV4-11 lysate | 1 h | > 30.2 µM |
| O=C(O)CCc1nc2ncccn2n1 | USP13 ZnF-UBD domain | – | – | – | 118 µM |
| CC(=O)N([O-])CCCCCNC(=O)CCC(=O)N([O-])CCCCCNC(=O)CCC(=O)N([O-])CCCCCNc1ccc([N+](=O)[O-])c2nonc12.[Fe+3] | Iron(3+)-hydroxamate-binding protein YxeB (yxeB, Bacillus subtilis, UniProt P54941) | binding, Trp fluorescence quenching | – | pH 7.4, with: yxeB 100 nM | 0.034 ± 0.023 µM |
| O=C(O)CCN1C(=O)c2ccccc2S1(=O)=O | USP13 ZnF-UBD domain | – | – | – | > 1000 µM |
| CC1=C(/C=C/C(C)=C/C=C/C(C)=C/C=C/C=C(C)/C=C/C=C(C)/C=C/C2=C(C)CCCC2(C)C)C(C)(C)CCC1 | Beta-lactoglobulin (LGB, Bos taurus, UniProt P02754) | binding, fluorescence quenching | PBS | 30 min, 308 K | 1.34 µM |
| NCCCCCCC#Cc1cc(N2C3CCC2CN(c2cc(-c4ccccc4O)nnc2N)C3)ccn1 | SMARCA2 | binding, NanoBRET tracer displacement | permeabilized HEK293 | – | 0.017 ± 0.0021 µM |
| CC(C)C[C@H](NC(=O)[C@H](CO)NC(=O)[C@@H](NC(=O)[C@H](CCC(=O)O)NC(=O)[C@H](CC(N)=O)NC(=O)[C@@H](NC(=O)[C@H](Cc1c[nH]cn1)NC(=O)[C@@H]1CCCN1C(=O)[C@H](CCCNC(=N)N)NC(=O)[C@@H](N)CO)[C@@H](C)O)[C@@H](C)O)C(=O)O | SCRIB PDZ3 domain | binding, fluorescence polarization | solution | Scribble PDZ3 domain | 2.4 µM |

| Structure (SMILES) | target | test | system | setting | Kd |
| --- | --- | --- | --- | --- | --- |
| Nc1ncnc2c1ncn2[C@@H]1O[C@H](CO[P@](=O)(O)O[P@](=O)(O)O[P@@](=O)(O)S)[C@@H](O)[C@H]1O | GUK1 (Homo sapiens, UniProt Q16774, R148A) | binding, ITC | – | 25 °C, with: GMP | 130 ± 10 µM |
| O=C(O)[C@@H](O)CO | Methyl-accepting chemotaxis protein McpA ligand-binding domain | binding, biolayer interferometry | – | 25 °C, 1:1 binding model | 11.5 ± 1.2 µM |
| Nc1nc2c(ncn2[C@@H]2O[C@H](COP(=O)(O)OP(=O)(O)O)[C@@H](OP(=O)(O)OP(=O)(O)O)[C@H]2O)c(=O)[nH]1 | gsk | isothermal titration calorimetry | – | – | 0.31 µM |
| CC(C)C[C@H](NC(=O)[C@@H]1CCCN1C(=O)[C@H](CCC(N)=O)NC(=O)[C@H](CC(N)=O)NC(=O)[C@H](Cc1c[nH]cn1)NC(=O)[C@H](Cc1ccc(OP(=O)(O)O)cc1)NC(=O)[C@@H](NC(=O)[C@@H]1CCCN1C(=O)[C@H](CC(N)=O)NC(=O)[C@H](CCC(N)=O)NC(=O)[C@@H](NC(=O)[C@H](CO)NC(=O)CNC(=O)[C@H](C)NC(=O)[C@@H]1CCCN1C(=O)c1ccc2c(c1)C(=O)OC21c2ccc(N(C)C)cc2Oc2cc(N(C)C)ccc21)C(C)C)C(C)C)C(=O)N[C@@H](CC(N)=O)C(=O)N1CCC[C@H]1C(=O)N[C@@H](CC(=O)O)C(=O)O | Tyrosine-protein kinase ABL1, SH2 domain (ABL1, Homo sapiens, UniProt P00519) | binding | – | – | 0.523 µM |
| C#Cc1c(F)ccc2cc(O)cc(-c3ncc4c(N5CC6CCC(C5)N6)nc(OC[C@@]56CCCN5C[C@H](F)C6)nc4c3F)c12 | Ras-related protein R-Ras, GDP-bound (RRAS, Homo sapiens, UniProt P10301) | binding, surface plasmon resonance | – | – | > 30 µM |
| O=C(O)CCC(=O)O | Methyl-accepting chemotaxis protein McpA ligand-binding domain | – | – | – | 473 ± 261 µM |
| CCCCCCCCCCCCCC(=O)O | uncharacterized protein | heme spectral shift, substrate, UV-visible spectral titration | – | – | 2.15 µM |
| O=C(O)CCC(=O)c1ccc2c(c1)CCC(=O)N2 | USP13 ZnF-UBD domain | – | – | – | > 1000 µM |
| Nc1ncnc2c1ncn2[C@@H]1O[C@H](COP(=O)(O)OP(=O)(O)O)[C@@H](O)[C@H]1O | GUK1 (Homo sapiens, UniProt Q16774, T19A) | binding, ITC | – | 25 °C | > 200 µM |
| Nc1nc2c(ncn2[C@@H]2O[C@H](COP(=O)(O)OP(=O)(O)O)[C@@H](OP(=O)(O)OP(=O)(O)O)[C@H]2O)c(=O)[nH]1 | gsk | binding, ITC sequential two-site fit | – | first site | 0.4 ± 0.07 µM |
| NCCCCCCCNC(=O)c1ccc(NC(=O)c2ccc(CN(C(=O)c3ccc4c(c3)OCC(=O)N4)C3CC3)cc2)cc1 | NSD2 PWWP1 domain | SPR single-cycle kinetics | – | pH 7.4, 20 °C, 0.5% DMSO | 0.041 ± 0.019 µM |
| [N-]=[N+]=NCC1OC(OC2C(N)CC(N)C(OC3OC(CN)C(O)C(O)C3O)C2O)C(O)C(N)C1O (stereo not drawn) | SCA3 RNA, 5′CAG/3′GAC repeats | RNA binding, fluorescence titration | – | 1 h, room temperature, 12 repeat copies | > 5 µM |
| Cn1cc(-c2cc(-c3ccccc3O)nnc2N)cn1 | SMARCA2 | binding, NanoBRET tracer displacement | permeabilized HEK293 | – | 0.098 ± 0.019 µM |
| CC(=O)N[C@H]1[C@H](O[C@H]2[C@H](O)[C@@H](NC(C)=O)C(O)O[C@@H]2CO)O[C@H](CO)[C@@H](O[C@@H]2O[C@H](CO)[C@@H](O)[C@H](O)[C@H]2NC(C)=O)[C@@H]1O (stereo partly drawn) | LYZ | surface sampling native MS | – | 10-fold dilution | 17.2 ± 2.3 µM |
| O=C(O)COc1cnc2ccccc2n1 | USP13 ZnF-UBD domain | – | – | – | > 1000 µM |
| CC[C@H](C)[C@H](NC(=O)[C@H](CCCNC(=N)N)NC(=O)[C@H](CCCCN)NC(=O)[C@@H]1CCCN1C(=O)[C@@H](N)CO)C(=O)N[C@@H](C)C(=O)O | N-terminal Xaa-Pro-Lys N-methyltransferase 1 (Homo sapiens, UniProt Q9BV86, D180A) | ITC | – | 25 °C, with: peptide | > 1000 µM |
| C[N+](C)(C)Cc1cccc(N=Nc2cccc(C[N+](C)(C)C)c2)c1 | muscarinic receptor, Rana temporaria | antagonist, radioligand displacement | ventricle homogenate | cis isomer, from mixtures, with: [3H]N-methylscopolamine | 15 to 20 µM |
| Cc1cc(Nc2cc3ncccc3c(N[C@@H]3C[C@H]4CC[C@@H](C3)N4CCC#N)n2)n[nH]1 | PAK4 (Homo sapiens, UniProt O96013) | binding, KINOMEscan | – | – | 0.17 µM |
| Nc1nc2c(ncn2[C@H]2C[C@H](OP(=O)(O)OP(=O)(O)O)[C@@H](COP(=O)(O)OP(=O)(O)O)O2)c(=O)[nH]1 | cadA (Escherichia coli, UniProt P0A9H3) | – | – | – | 5.3 µM |
| C[C@H](O)[C@@H](O)[C@@H](O)[C@H](O)C=O | Methyl-accepting chemotaxis protein McpA ligand-binding domain | binding, biolayer interferometry | – | 25 °C, 1:1 binding model | 63.4 ± 6.42 µM |
| CSc1nc(C)c(CCC(=O)O)c(=O)[nH]1 | HDAC6 ZnF-UBD domain | – | – | – | > 1000 µM |
| CC(C)C[C@H](NC(=O)[C@H](CO)NC(=O)[C@@H](NC(=O)[C@H](CC(=O)O)NC(=O)[C@@H](NC(=O)[C@H](CC(C)C)NC(=O)[C@H](CCC(N)=O)NC(=O)CNC(=O)[C@@H]1CCCN1C(=O)[C@@H](N)CCC(N)=O)C(C)C)[C@@H](C)O)C(=O)O | SCRIB PDZ3 domain | binding, fluorescence polarization | solution | Scribble PDZ3 domain | 28.2 µM |
